{"data": "Measured values of several laboratories", "note": "Numbered parts are unrelated; each lists some results of a single study. Substitutions count along the parent as printed."}
{"data": "Series 1", "target": "RING finger protein unkempt homolog, zinc fingers 1-6, GST-SBP tag (UNK, Homo sapiens, UniProt Q9C0B0, residues 30-357)", "technique": "RNA Bind-n-Seq", "form": "RNA", "sample": "in vitro", "tested at": "not given", "setting": "RNA with constant flanks, human and mouse sites, ends assumed", "baseline": "input RNA pool", "direction": "higher = stronger binding", "all sequences stand within": "GGGAGUUCUACAGUCCGACGAUC … CAACAGAGGAUUGAGCAUCA", "Residues (chain)": "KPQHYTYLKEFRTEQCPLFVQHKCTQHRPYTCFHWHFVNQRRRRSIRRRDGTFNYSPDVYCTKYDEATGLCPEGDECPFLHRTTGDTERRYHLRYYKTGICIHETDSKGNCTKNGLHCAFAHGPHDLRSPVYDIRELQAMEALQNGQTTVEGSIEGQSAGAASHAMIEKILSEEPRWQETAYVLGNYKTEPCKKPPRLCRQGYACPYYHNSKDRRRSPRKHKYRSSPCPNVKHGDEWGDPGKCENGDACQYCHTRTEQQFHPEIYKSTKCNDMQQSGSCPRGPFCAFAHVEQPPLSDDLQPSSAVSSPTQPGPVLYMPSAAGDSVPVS"}
{"Strand": "AAAAAAAGAAUAAAAAUCAGCCAUUUUCAACAAUUUAUAUUAUUUUUAAAAAUAAAUUUCACUAGUGCAUGGUUUUAAAAAGGAGAGAGAAUGCAACAGGGUGAUACAAAGAUACACCAU", "bound/input enrichment [ratio]": 1.3}
{"Strand": "UUCUACUUUGGUUCCCUGAGGCUCAAUUCUAUUCACAUCUCCCAGAGGUUCACGGUGGACAGCUUUGGAAACUAUGCCUCCUGCGGACAUGUUGACUUCUCCUGACGCGGGAGAGCAGCA", "bound/input enrichment [ratio]": 0.242}
{"Strand": "CUUUCACUAACCUUACAUCCAGACAAGAAUAAAGAUGAAAAUGCAGAAACUCAAUUUAGACAAUUGGUGGCCAUUUAUGAAGUUUUAAAGGAUGAUGAAAGAAGGCAGAGGUAUGAUGAU", "bound/input enrichment [ratio]": 0.295}
{"Strand": "GGUUUUGACCGUCACAUUACUAUCUUCUCUCCCGAGGGCCGACUCUACCAAGUAGAAUAUGCUUUUAAGGCUAUUAACCAGGGUGGACUUACAUCUGUUGCUGUCAGAGGAAAGGACUGU", "bound/input enrichment [ratio]": 0.317}
{"Strand": "CACUUUAAGCAGUAUGUUCCUAUCAUUGAAAAAGAAGCAAAGGAAUACUUUCAAAGUUGGGGAGAAAGCGGAGAAAGAAAUGUGUUUGAAGCACUGUCUGAGCUCAUAAUUUUGACAGCU", "bound/input enrichment [ratio]": 0.109}
{"Strand": "AAGGUAUUUGGAGGUACUGUGCACAAAAAAAGUGUCAGAGAAGAUGGAGUUUUCAACAUUAGUGUGGAUAAUACAUGUUCAUUAUUCAGGGGCCUUCAGAAGGAAGAAGUUGUUUUGCUU", "bound/input enrichment [ratio]": 0.358}
{"Strand": "CAGAUCUCUGCCCAGCUCUCGUGGCUGCCGACCAACAGUAACUACAGCCAUAUCAUCUUCCUCAACGAAGAAGAACUGGACAUCGUGAAGGCAGCCAGGUACAAGUACCAAUUCUUCAAC", "bound/input enrichment [ratio]": 0.0465}
{"Strand": "GCUCAGGCUUUCCCAGUGAGCGAGGCCGGCGCUUUAUAACAGCAGCCUGGGCGGCUCCACCGGCUGUUUUUUCGGCUCCUCGGGUUUGUGUCUGCAGGUGCCAUCCGCGAAGAUGCAGCU", "bound/input enrichment [ratio]": 0.17}
{"data": "Series 2", "target": "ABI1, truncated, D143A, DHFR fusion (Arabidopsis thaliana)", "technique": "DHFR PCA, deep sequencing", "sample": "yeast", "setting": "methotrexate growth selection, single substitutions", "with": "(+)-ABA 0.11 µM", "baseline": "wild-type fitted maximum", "direction": "higher = stronger binding", "parent": "PYL1, truncated, DHFR fusion (Arabidopsis thaliana); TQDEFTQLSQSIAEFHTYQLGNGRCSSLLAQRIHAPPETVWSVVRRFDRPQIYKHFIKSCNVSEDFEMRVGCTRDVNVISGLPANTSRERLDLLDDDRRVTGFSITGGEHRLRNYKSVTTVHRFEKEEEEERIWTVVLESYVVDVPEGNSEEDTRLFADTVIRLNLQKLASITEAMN; partner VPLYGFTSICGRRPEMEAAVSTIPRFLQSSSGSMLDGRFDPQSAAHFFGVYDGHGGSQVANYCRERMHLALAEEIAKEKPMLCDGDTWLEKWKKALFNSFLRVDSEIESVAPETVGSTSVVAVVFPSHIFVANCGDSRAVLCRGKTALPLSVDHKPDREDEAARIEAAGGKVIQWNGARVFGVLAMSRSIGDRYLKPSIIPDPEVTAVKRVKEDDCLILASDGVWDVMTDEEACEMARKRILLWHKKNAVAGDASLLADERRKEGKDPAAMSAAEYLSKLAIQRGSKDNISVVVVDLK"}
{"Variant": "V145W", "relative binding score [%]": -10.6}
{"Variant": "E130F", "relative binding score [%]": 17.7}
{"Variant": "W41E", "relative binding score [%]": -8.99}
{"Variant": "D96V", "relative binding score [%]": 4.86}
{"Variant": "F103H", "relative binding score [%]": -3.01}
{"Variant": "L169D", "relative binding score [%]": -0.618}
{"Variant": "P83Q", "relative binding score [%]": 17.6}
{"Variant": "D153R", "relative binding score [%]": -1.65}
{"Variant": "S117A", "relative binding score [%]": 4.02}
{"Variant": "G21R", "relative binding score [%]": 24.8}
{"Variant": "V40D", "relative binding score [%]": -6.4}
{"Variant": "V143D", "relative binding score [%]": -1.24}
{"Variant": "V121N", "relative binding score [%]": -7.07}
{"Variant": "E147Q", "relative binding score [%]": 15.4}
{"Variant": "N165G", "relative binding score [%]": 5.67}
{"Variant": "F15K", "relative binding score [%]": -1.06}
{"Variant": "I57A", "relative binding score [%]": 1.84}
{"Variant": "I33W", "relative binding score [%]": -1.42}
{"Variant": "V43Q", "relative binding score [%]": -5.73}
{"Variant": "L29S", "relative binding score [%]": 0.724}
{"Variant": "V40H", "relative binding score [%]": 5.72}
{"Variant": "G148P", "relative binding score [%]": 5.95}
{"Variant": "S9A", "relative binding score [%]": 41.6}
{"Variant": "E152R", "relative binding score [%]": 1.84}
{"Variant": "N85Q", "relative binding score [%]": 59.3}
{"data": "Series 3", "target": "CCNE1, cyclin fold, Cln2 fusion (human)", "technique": "yeast growth competition, sequencing", "sample": "yeast", "setting": "weak parent motif", "baseline": "not given", "direction": "higher = stronger binding", "parent": "EXO1 docking peptide (human); KPECGRVQRAIFQ"}
{"Variant": "KAECGRVQRAIFQ [P2A]", "normalised enrichment score": 0.313}
{"Variant": "KPECGRAQRAIFQ [V7A]", "normalised enrichment score": 0.511}
{"Variant": "APECGRVQRAIFQ [K1A]", "normalised enrichment score": 0.059}
{"Variant": "KPACGRVQRAIFQ [E3A]", "normalised enrichment score": 0.399}
{"Variant": "KPECGRVQRAIFA [Q13A]", "normalised enrichment score": 0.33}
{"Variant": "KPECGRVQRAAFQ [I11A]", "normalised enrichment score": -0.0111}
{"data": "Series 4", "target": "Interferon regulatory factor 7, full length, phosphomimetic (IRF7, Homo sapiens, UniProt Q92985, residues 1-503, S471D/S472D/S475D/S476D/S477D/S483D/S484D/S487D)", "technique": "protein-binding microarray", "form": "double-stranded DNA, one strand shown", "sample": "in vitro", "tested at": "2200 nM top", "setting": "60-bp whole probe", "with": "salmon DNA 0.4 mg/ml", "baseline": "random background probes", "direction": "higher = stronger binding", "all sequences stand within": "GCCTAGCAC … GTCTTGATTCGCTTGACGCTGCTG", "Residues (chain)": "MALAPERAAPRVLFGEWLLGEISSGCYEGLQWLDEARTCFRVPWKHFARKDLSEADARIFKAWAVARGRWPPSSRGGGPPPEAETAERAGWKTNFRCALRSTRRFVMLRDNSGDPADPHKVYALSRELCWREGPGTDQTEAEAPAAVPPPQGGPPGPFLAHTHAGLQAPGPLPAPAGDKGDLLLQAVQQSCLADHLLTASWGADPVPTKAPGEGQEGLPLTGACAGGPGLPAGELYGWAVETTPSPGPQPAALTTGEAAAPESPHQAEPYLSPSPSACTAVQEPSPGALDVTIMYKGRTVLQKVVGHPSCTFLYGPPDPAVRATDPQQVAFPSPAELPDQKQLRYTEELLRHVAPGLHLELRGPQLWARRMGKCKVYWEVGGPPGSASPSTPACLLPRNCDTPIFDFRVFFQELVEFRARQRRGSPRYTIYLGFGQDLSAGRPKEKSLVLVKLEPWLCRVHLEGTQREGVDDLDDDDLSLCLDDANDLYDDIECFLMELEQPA"}
{"Strand": "GACGGTAACGGTATCGGGACGTGCTAG", "fitted relative affinity [z-score]": -0.364}
{"Strand": "GATTGGTTGAACATGAACTTGTGCTAG", "fitted relative affinity [z-score]": 0.223}
{"Strand": "GACGGACTGGACACTGGTGACGTGCTA", "fitted relative affinity [z-score]": -0.562}
{"Strand": "TCACTTTCCATTTCTGTTACTGTGCTA", "fitted relative affinity [z-score]": 10.7}
{"Strand": "TTAGAACTGGGGACTGGTTTAGTGCTA", "fitted relative affinity [z-score]": -0.429}
{"Strand": "GACGATCTTAGTCTCGAGACGTGCTAG", "fitted relative affinity [z-score]": 0.246}
{"Strand": "TTAGGTAACCTACTGCTTTAGTGCTAG", "fitted relative affinity [z-score]": 0.161}
{"Strand": "TCACCTCTCAACCATCCTACTGTGCTA", "fitted relative affinity [z-score]": 2.06}
{"Strand": "TCACCTCTAGGTTCTCTGACTGTGCTA", "fitted relative affinity [z-score]": 0.72}
{"Strand": "CTCTTTCTCTGCTACCCTCTGGTGCTA", "fitted relative affinity [z-score]": 2.16}
{"Strand": "GACGGACTCGGACTGGGGACGTGCTAG", "fitted relative affinity [z-score]": -0.454}
{"Strand": "TTAGGACTGCTACCGCTTTAGTGCTAG", "fitted relative affinity [z-score]": 0.332}
{"Strand": "TTAGGACTGCTTATCCTTTCGTGCTAG", "fitted relative affinity [z-score]": 0.884}
{"Strand": "TTGTGTCTGGGCATTTTTTTAGTGCTA", "fitted relative affinity [z-score]": -0.959}
{"Strand": "GTAGGTTTCGGTTCCGGTTAGTGCTAG", "fitted relative affinity [z-score]": 11.6}
{"Strand": "TTAGATTTCAGTATCAATTAGTGCTAG", "fitted relative affinity [z-score]": 0.565}
{"Strand": "GACGGTCTGGACACTGGGGACGTGCTA", "fitted relative affinity [z-score]": -0.599}
{"Strand": "TTAGGTATCCTCCTGCTTTAGTGCTAG", "fitted relative affinity [z-score]": 0.839}
{"Strand": "TCATCTTGCAGATGTCGCACTGTGCTA", "fitted relative affinity [z-score]": 0.996}
{"data": "Other studies, line by line"}
{"Substance": "PhoQ, residues 284 288 289 292 302 303 ALASRC", "target": "PhoP, residues 12 14 15 18 19 LHHSG (Escherichia coli, UniProt P23836)", "assay": "Sort-seq, measured: YFP reporter", "system": "E. coli", "setting": "PhoQ-PhoP variant library, with: 10 µM Mg2+", "how to read": "baseline: high Mg2+ state, higher = stronger signaling", "endpoint": "fold induction", "value": 8.85}
{"note": "For quick reference, copied from above (series 4):"}
{"Strand": "TCACCTCTCAACCATCCTACTGTGCTA", "fitted relative affinity [z-score]": 2.06}
{"Strand": "GTAGGTTTCGGTTCCGGTTAGTGCTAG", "fitted relative affinity [z-score]": 11.6}
{"Strand": "GACGGACTGGACACTGGTGACGTGCTA", "fitted relative affinity [z-score]": -0.562}
{"Strand": "TCACTTTCCATTTCTGTTACTGTGCTA", "fitted relative affinity [z-score]": 10.7}
{"Strand": "TCACCTCTAGGTTCTCTGACTGTGCTA", "fitted relative affinity [z-score]": 0.72}
{"Strand": "TTAGGTAACCTACTGCTTTAGTGCTAG", "fitted relative affinity [z-score]": 0.161}
{"Strand": "CTCTTTCTCTGCTACCCTCTGGTGCTA", "fitted relative affinity [z-score]": 2.16}
{"Strand": "GACGGTCTGGACACTGGGGACGTGCTA", "fitted relative affinity [z-score]": -0.599}
